# Experimental data from different studies.
# Parts stem from different laboratories: compare values within a part only. Substitutions count along the parent as printed. ± marks the error that the study gave.
# Chain of UniProt P53350 (whole entry, looked up): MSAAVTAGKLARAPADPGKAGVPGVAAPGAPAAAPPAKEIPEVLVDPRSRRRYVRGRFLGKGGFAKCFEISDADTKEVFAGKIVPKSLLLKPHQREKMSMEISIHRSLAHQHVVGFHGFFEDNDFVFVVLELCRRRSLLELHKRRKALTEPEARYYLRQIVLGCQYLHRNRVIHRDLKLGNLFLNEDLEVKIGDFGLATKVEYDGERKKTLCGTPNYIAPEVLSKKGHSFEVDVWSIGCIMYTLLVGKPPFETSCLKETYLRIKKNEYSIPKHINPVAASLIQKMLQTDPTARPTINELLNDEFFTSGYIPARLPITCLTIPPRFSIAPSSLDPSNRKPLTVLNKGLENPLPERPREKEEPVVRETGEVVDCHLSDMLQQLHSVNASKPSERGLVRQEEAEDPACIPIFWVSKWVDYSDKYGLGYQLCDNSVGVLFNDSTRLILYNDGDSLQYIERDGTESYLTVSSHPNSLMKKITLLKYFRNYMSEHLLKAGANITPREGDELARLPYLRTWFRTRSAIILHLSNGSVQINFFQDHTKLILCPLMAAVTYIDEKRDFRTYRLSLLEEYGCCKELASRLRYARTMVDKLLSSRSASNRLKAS
# Chain of UniProt Q9Y4K4 (whole entry, looked up): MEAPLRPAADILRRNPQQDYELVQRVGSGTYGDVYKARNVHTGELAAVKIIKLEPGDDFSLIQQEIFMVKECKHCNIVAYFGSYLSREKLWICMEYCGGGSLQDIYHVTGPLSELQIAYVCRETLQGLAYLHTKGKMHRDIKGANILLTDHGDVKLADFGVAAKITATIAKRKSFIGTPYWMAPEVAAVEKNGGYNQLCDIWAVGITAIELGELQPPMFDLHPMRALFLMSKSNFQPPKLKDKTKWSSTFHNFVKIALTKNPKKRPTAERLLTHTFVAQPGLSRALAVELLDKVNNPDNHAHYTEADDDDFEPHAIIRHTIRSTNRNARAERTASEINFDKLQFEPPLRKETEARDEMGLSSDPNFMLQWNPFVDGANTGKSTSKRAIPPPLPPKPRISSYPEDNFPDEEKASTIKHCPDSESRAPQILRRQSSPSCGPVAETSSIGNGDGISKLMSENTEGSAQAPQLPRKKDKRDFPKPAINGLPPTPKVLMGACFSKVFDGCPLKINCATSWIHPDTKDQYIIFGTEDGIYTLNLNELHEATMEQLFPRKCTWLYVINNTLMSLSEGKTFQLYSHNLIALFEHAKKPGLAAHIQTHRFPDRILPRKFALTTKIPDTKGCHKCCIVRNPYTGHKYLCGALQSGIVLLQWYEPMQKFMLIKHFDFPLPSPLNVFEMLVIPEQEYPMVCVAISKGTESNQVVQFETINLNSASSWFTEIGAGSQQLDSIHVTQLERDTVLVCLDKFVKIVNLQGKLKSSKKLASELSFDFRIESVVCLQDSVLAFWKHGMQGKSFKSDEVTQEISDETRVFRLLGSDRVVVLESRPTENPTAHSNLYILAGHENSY

# Series 1
# SMILES: COc1cc(C(=O)N2CCC(N3CCN(C)CC3)CC2)ccc1Nc1ncc2c(n1)N(C)c1ccccc1C(=O)N2C
# Read-out: kinase activity
target,setting,remaining activity [%]
VEG-FR,1 µM,64 ± 5
MAPKAP-K2,10 µM,84 ± 2
FGF-R1,10 µM,60 ± 5

# Series 2
# Target: RNA binding protein fox-1 homolog 2, RRM domain, GST-SBP tag (RBFOX2, Homo sapiens, UniProt O43251-10, residues 100-194)
# Method: RNA Bind-n-Seq
# Molecule type: RNA
# Medium: in vitro
# Tested at: 365 nM
# Setting: natural RNA segment, single round, ends assumed
# Baseline: no-protein control
# Direction: higher = stronger binding
# Shared flanks, not repeated: GGGAGUUCUACAGUCCGACGAUC … UGGAAUUCUCGGGUGCCAA
# Construct (chain): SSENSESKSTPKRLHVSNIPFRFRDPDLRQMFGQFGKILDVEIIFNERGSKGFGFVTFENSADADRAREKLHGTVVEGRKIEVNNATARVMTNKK
Sequence,RBNS enrichment (R)
UCACCUGAGCACAUGGUCUACUGCUUAAGGGCAUGGGGGAGGGGACCGCCCCUCUUGAGGAAGCAGAAUUAACAUCAGAAUACAAACAGCAUCAGGGCAACCCACUUCAG,2.2
CCCUCGAGUGUGCAUGCCACCCUGGGGCUCUUCUCAGUCCUGGGCCCAAGUCCCUGAAGCCUAGCAGAGGGCCAGCUCGGGUGGCCAGAACACCCCUUGGUGCAGGCCUC,7.26
GACUGGUCUCGAACUCCUGGCCUCAAGCCAUCUUCCCGCCUCAGCCUCUCAAAUAGCUGGGCUUACAGGCAUGAGCCACCACACCUGGCCAGGAUUUGGUUGUUUAAAUA,0.351
UGAAUCAUAAAAUGGGGACAUAUCAUCAAAUCCAAAGUGGUAACAGUGCUAAAUAAGCAUGUAUGAAAUUGAAUGGUUGUGAUGGCUGGUGGGCGGGGGCAAAGAGCCUA,1.48
AGGCCCCAAGCCAGGGGCAGUGAGGUCAUCUAGCAGUGACAGGAUCCCAUCAGGCUCCUUGGAAAGUGCUUCUACUUCCGAAGCCAACCCUGAGGGGCACUCAGCCAGCU,0.234
CUAAAAGUACUUGGGUAAACAUACUAAAAUGAAUUAUAUAAUGCAGCCUCUUAAUUCUUUGAAGAACUAAAAAAUUAGGAAACAAAGUUCUAGCAUUUACAAAACUCAGA,0.848
UUUCCUGAAGUAUUCUGAUAAAUGUGUUUUUUAAAACCUCAAUAUACUUUUUAGAAAAGGAGCAUCUGGUUAUGCAUAAAGCAGAGCUAAAACUAAAUUUCUUUCAUGUC,0.462
CUGACUACGUGUAAUUGGGCAGAUCAGCUUUGCAGUAGAUUAUGCUGCAUCCUCGUGGCAAAAUUCUGUAUUCUUAGUGAUUGUUACAAACCCCUUUAUUGCUGUCUGAG,0.25

# Series 3
# Target: CRIPT, C-terminal peptide
# Method: DHFR complementation, deep sequencing
# Medium: yeast
# Setting: single substitutions, model-inferred values
# Baseline: wild type
# Direction: higher = weaker binding
# Starting sequence: ERBIN, PDZ domain 1 (human); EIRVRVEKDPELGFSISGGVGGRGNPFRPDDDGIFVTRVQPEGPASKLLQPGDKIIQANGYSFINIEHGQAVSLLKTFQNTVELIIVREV; partner TKNYKQTSV
Change,binding free energy change [kcal/mol]
Q79E,-0.00312
S62R,0.093
E83V,0.107
F78S,0.207
P44G,0.503
E11N,-0.426
Q57P,0.867
R28D,0.105

# Series 4
# SMILES: Oc1cccc(-c2nc(N3CCOCC3)c3oc4ncccc4c3n2)c1
# Read-out: enzyme activity
# Mode: inhibitor
# Tested at: 0.5 µM
# Baseline: control
target,remaining activity
"PLK1 (Homo sapiens, UniProt P53350)",97.9%
"RAF1 (Homo sapiens, UniProt P04049)",79.1%
"MAP4K5 (Homo sapiens, UniProt Q9Y4K4)",82.4%

# Single results of other studies
SMILES,target,test,quantity,value
Cc1ccc2nc(CNCCCOc3ccccc3)cc(O)c2c1,NMDA receptor,receptor binding panel,Ki,1000 nM
